Measured values of several laboratories.
Parts stem from different laboratories: compare values within a part only. Substitutions count along the parent as printed.

Series 1
Target: CCNA1, cyclin fold, Cln2 fusion (human)
Method: yeast growth competition, sequencing
Medium: yeast
Notes: weak parent motif
Reference: not given
Reading: higher = stronger binding
Starting sequence: CDC42EP1 docking peptide (human); SLVVGKLSFDSSP; partner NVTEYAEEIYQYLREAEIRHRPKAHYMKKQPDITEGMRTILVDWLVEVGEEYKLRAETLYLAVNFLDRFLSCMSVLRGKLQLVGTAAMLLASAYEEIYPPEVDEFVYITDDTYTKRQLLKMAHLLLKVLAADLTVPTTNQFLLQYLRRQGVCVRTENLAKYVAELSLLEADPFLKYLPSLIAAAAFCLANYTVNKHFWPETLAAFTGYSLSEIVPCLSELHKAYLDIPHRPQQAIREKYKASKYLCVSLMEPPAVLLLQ
Change	normalised enrichment score
ALVVGKLSFDSSP [S1A]	-0.168
SLAVGKLSFDSSP [V3A]	-0.553
SLVVGALSFDSSP [K6A]	-0.353
SLVVGKLSFDSSA [P13A]	-0.464
SLVVGKASFDSSP [L7A]	-0.33
SLVVGKLAFDSSP [S8A]	-0.527
SAVVGKLSFDSSP [L2A]	-0.348

Series 2
Target: Ras GTPase-activating protein-binding protein 1, C-terminal RGG region (G3BP1, Homo sapiens, UniProt Q13283)
Sequence of UniProt Q13283 (whole entry, looked up): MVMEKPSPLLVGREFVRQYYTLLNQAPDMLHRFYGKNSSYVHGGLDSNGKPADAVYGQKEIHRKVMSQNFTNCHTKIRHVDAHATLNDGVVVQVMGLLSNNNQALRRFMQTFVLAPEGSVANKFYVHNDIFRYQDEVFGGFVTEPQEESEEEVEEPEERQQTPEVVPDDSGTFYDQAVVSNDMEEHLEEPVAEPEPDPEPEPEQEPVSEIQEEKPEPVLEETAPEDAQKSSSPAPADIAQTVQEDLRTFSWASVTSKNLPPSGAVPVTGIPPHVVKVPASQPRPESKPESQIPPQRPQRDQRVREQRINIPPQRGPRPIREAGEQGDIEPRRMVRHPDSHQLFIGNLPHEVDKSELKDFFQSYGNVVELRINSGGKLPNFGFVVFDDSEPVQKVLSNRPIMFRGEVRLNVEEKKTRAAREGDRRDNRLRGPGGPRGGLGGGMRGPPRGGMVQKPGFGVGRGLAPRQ
Method: RNA Bind-n-Seq
Molecule type: RNA
Medium: in vitro
Concentration: 1 µM
Notes: whole 134-nt RNA, ends assumed
Added: 150 mM KCl
Reference: input library
Reading: higher = stronger binding
Sequence	log2 enrichment
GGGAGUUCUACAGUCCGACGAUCCCUCAAGUCCUGUGCUACACAUCGUAUGUACCGAAUCGGUGGGGUGGUGGGGAAAGUAUUAUGUUACGCCGUUCGGAUCUGCACUUCCAGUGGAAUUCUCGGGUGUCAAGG	-0.184
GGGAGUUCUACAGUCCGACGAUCUUUAGACAGAAACAAGAAGCAACAGAGUCCCUUAAGUGCCAAGAGGAACUUCGAGAGCGCCUUCAUGAGGAGUCCAGGGCCAGAGAACAGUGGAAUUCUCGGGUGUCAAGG	-0.95
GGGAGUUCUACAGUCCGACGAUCCACAGACAACACGCACCCACACAGACACAGAGGGAAAGGGUUGGGAUGGGGACAGGGUGCACAGCAGGGCGGGGUAGGACCCCAGCCCCUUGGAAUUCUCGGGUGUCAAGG	-0.32
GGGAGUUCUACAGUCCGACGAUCUGGCCCUGGUGGCAUGCGGGGAGGAGGAGGUGGCCUCAUGGAUCGUGGUGGUCCCGGUGGAAUGUUCAGAGGUGGCCGUGGUGGAGACAGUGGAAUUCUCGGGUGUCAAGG	2.26
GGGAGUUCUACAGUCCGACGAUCCUCAAGUCCUGUGCUACACAUCGUAUGUACCGAAUCGGUUUUUGGUGGAAAGGAAAGUAUUAUGUUACGCCGUUCGGAUCUGCACUUCCAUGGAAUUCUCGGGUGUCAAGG	-1.14
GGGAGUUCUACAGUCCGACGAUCAUUCUAUAAAUGGCAAGUAAGCCUGAAGUGAGGAUACUGCAAUUUUCGGAGAAAAGAACAGCAGCUCUUUAAGUGUUUGCAUUUUCUAUUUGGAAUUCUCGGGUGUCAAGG	-1.98
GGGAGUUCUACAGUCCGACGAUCUGUGUCUUGCUGAAUCAGGGCUCUCUUAUCCCUGCCAUCGACUUACAGUGGGAAGAAGAUCUUCACCUGCACAGACCCGGGAACAGUCGGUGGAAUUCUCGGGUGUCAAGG	-0.383
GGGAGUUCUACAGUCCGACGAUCCACCGACAACACGCACCCACACAGACACAGAGGGAAGGGGUUGGGAUGGGGACAGGGUGCACAGCAGGGCGGGGUAGGACCCCAGCCCCUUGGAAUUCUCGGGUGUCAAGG	0.0275
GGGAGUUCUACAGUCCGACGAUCUCAAGUCCUGUGCUACACAUCGUAUGUACCGAAUCGGGUUUGGGUUUGGUUUGGGAAAGUAUUAUGUUACGCCGUUCGGAUCUGCACUUCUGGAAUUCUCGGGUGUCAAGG	-1.03
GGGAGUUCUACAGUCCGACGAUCCACAGACAACACGCACCCACACAGACACAGAGGGAAGGGGUUGGGAUGGGGACAGGGUGCACAGCAGGGCGGGGCAGGACCCCAGCCCCUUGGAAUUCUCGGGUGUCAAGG	-0.553
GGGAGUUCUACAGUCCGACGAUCGUCCUGUGCUACACAUCGUAUGUACCGAAUCAAACCCAAAUUUUUUUAAAUUUUUAAAAAAGUAUUAUGUUACGCCGUUCGGAUCUGCACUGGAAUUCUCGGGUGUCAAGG	-1.57
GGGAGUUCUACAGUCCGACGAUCCCUCAAGUCCUGUGCUACACAUCGUAUGUACCGAAUCGGUUUGGUGGAAAGGAAAGUAUUAUGUUACGCCGUUCGGAUCUGCACUUCCAGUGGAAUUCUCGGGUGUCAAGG	-0.605
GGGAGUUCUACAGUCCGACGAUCCAAGUCCUGUGCUACACAUCGUAUGUACCGAAUCGGGAAAGGGAGGGUUUUUGGGAAAGUAUUAUGUUACGCCGUUCGGAUCUGCACUUCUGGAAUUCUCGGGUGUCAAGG	1.8
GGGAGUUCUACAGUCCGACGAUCAGUCCUGUGCUACACAUCGUAUGUACCGAAUCGGUUUUUUUGGUUUUUGGAAAAAGGAAAGUAUUAUGUUACGCCGUUCGGAUCUGCACUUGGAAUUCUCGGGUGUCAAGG	-1.86

Series 3
Target: FOS, bZIP domain (human)
Method: DHFR protein complementation
Medium: yeast
Notes: single substitutions, most at no-binding floor
Reference: wild-type JUN-FOS pair
Reading: higher = stronger binding
Starting sequence: JUN, bZIP domain (human); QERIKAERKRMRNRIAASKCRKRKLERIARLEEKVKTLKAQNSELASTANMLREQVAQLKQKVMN; partner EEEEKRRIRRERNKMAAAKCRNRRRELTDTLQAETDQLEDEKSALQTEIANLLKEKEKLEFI
Change	binding fitness [natural log]
T48V	-0.0685
Q55R	-0.183
A40C	-0.174
E32C	0.269
V56C	-0.52
R30Q	0.146
L52K	-1.04
K34G	-0.0726
S47A	0.0936
S43Y	-0.154
R30C	0.01
L52Y	-0.837
R53D	-1.08
E32Q	-0.0894
A29Y	-0.24

Series 4
Target: RNA binding protein fox-1 homolog 2, RRM domain, GST-SBP tag (RBFOX2, Homo sapiens, UniProt O43251-10, residues 100-194)
Method: RNA Bind-n-Seq
Molecule type: RNA
Medium: in vitro
Concentration: 365 nM
Notes: natural RNA segment, single round, ends assumed
Reference: no-protein control
Reading: higher = stronger binding
Construct (chain): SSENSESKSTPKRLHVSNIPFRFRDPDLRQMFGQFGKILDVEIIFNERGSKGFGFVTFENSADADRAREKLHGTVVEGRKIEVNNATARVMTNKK
Sequence	RBNS enrichment (R)
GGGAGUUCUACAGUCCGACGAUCUACUGACCGCUAUAGAGCAGAUACUCUGAGGGCCGACCCUCGCCUUUUCAUAGACAGACGAGGCAACUGCAUAUAGGUUUUGUCUUUAAAACCACCUUUAAUCUAGAUACUGGAAUUCUCGGGUGCCAA	0.284
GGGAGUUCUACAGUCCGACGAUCCUUCCCUUUCUCAGUUCCUGACCUUCCUCUGAGCCCUUGAGACACUUUGUAAUGCUCUUUUGUAACUAUCGACAAAGGUGUGGGGAAGCUGAGGUCUAGGUCUUCUUAAAUGGAAUUCUCGGGUGCCAA	0.343
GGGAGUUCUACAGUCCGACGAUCUCUGUCUUCUGAGGCUUAGCAUCUGUCAGGGCUGGGGUUGGUUCAGCCCUUGGUACUCCAGAUGUGGUUCCAGGCUCCCUUGUGGGAGCUGGACCGGUCUGGGUUUAAUCUGGAAUUCUCGGGUGCCAA	0.248
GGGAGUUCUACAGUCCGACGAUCAAGGCAGGAAUUUGAGAGUUCACAGAAGGAUCGUGUCUGCUGACUGUUUCAUUCACUGUGCACUUUGCUCAAAAUUUUAAAAAUACCAAUCACAAGGAUAAUAGAGUAGCUGGAAUUCUCGGGUGCCAA	0.378
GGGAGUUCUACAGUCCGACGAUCAAGUUCCUUUUUACUUCAAGCUACUUUUUAUAAAAAAGAACAUUUUUCCAGUGUGGUUUUUAACAGAUAAUACAUUUCUUCCACAUUCAGAUUAGUAUUCGGACAUGAAUUGGAAUUCUCGGGUGCCAA	0.403
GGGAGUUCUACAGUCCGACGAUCUUGGAUUCUGAGAAACUUGCAGCUCUUCACCAUUUACUCCUGAUGUUUCUUGUAUGGGGCCGUGGCCCUUUUGGUUGUUUUUGGUCAUUUUCUUAAAAACACAACACAACUGGAAUUCUCGGGUGCCAA	0.407
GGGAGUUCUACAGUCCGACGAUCGAAGAGUGGUUACCUAUACCUAGCAUAGUACAAUCAGAACCUCGUGGAGACCACCGGGGACAGGCUUGCGGACGCCGGCUGUUCUUCCCGCCACGAUCUUUCUGUGGUAGUGGAAUUCUCGGGUGCCAA	0.252
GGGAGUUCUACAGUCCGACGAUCUCAGGCAGUAGAAACAUUGCCAGAAGGAUAGAAAGGAAUUUGGAUUAUAUAUAAGGAAAAUAACAAAUCGGUGUUUUUAAGACUAUCACUGUCAUAUAUUAGAUCCUUGUUGGAAUUCUCGGGUGCCAA	0.37
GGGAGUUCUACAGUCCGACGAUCGGCUUCUCCCCACCGUGCGCCUGUUACAAACUGUUGUGGAUUCUGCCAGGCUCGAAGAAAAUGAUCUGAAUUUCUUCCUCUUUUUGGUUUUAUUUUGUUGGUUUACUUUGUGGAAUUCUCGGGUGCCAA	0.504
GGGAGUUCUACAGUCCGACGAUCAGUUUUCUUUUUAAGAAUCAUGCCAGAGCCUGAGUCGAGCAGUAUGCUUUCUUGGUUUUUGAGAGUAAUUGUGUAAUUGUAGAGGGAGAAAUCCAAUUCUAACCUAAGAAUGGAAUUCUCGGGUGCCAA	0.647
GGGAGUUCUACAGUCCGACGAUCGGGGUGGGCGCCGCUAGCCAAGAAAACACUAGAGAGCUGCAGGUACCUGCCACUUGGUCCUGGGAGGUCAAAGGCCACAGAGGGAUAGGUACAGUCACCACCACCCUGGAUGGAAUUCUCGGGUGCCAA	0.386
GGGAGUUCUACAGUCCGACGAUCCUAAACCCUAAUGGGAUGAGGCUUUUCACCCCAGGCCAUGCUGGUGGUGAUUUUUUAGCCCCUAAAUAAAACACUGGACUAUUUCCUGUUUACUUCAUUGAUUGCAACUAUGGAAUUCUCGGGUGCCAA	0.368

Series 5
Target: Interferon regulatory factor 5, full length, phosphomimetic (IRF5, Homo sapiens, UniProt Q13568-2, residues 1-514, S451D/S453D/S456D/S462D)
Method: protein-binding microarray
Molecule type: double-stranded DNA, one strand shown
Medium: in vitro
Concentration: 940 nM top
Notes: 60-bp whole probe
Added: salmon DNA 0.4 mg/ml
Reference: random background probes
Reading: higher = stronger binding
Shared flanks, not repeated: GCCTAGCAC … GTCTTGATTCGCTTGACGCTGCTG
Sequence	fitted relative affinity
TTAGGTTCCGGTTTCGCTTAGTGCTAG	6.67 z-score
GGGATAAGGACAGACACCATGTGCTAG	-0.19 z-score
TTAGGTTTCGAACTGGGTTAGTGCTAG	5.47 z-score
TTAGGTCTCGGACGGGGTTAGTGCTAG	1.41 z-score
TTAGATATCAGTATCGGTTAGTGCTAG	4.62 z-score
TTTGGACTGGGTTTCGGTTAGTGCTAG	7.2 z-score
GGCGGTATCGGTCTCGGGACGTGCTAG	8.63 z-score
CAGCCTCTACCTCCTGGGCTCGTGCTA	0.0703 z-score
TTACGTATCGGTTTCGGTTAGTGCTAG	12.2 z-score
TTAGGTTTCGGTATCGATTAGTGCTAG	14.8 z-score
AACGAACTGAGACTGGAGACGTGCTAG	-0.371 z-score
CTTTATGTACTCTCTCCATGTGTGCTA	1.22 z-score
TTAGATCTCAGTATCGACTAGTGCTAG	2.45 z-score
TTAGATGTCGGGTTTCGATTAGTGCTA	4.85 z-score
TTAGAACTGGGGTTTCGGTTAGTGCTA	5.66 z-score
TTAGGTATCAACTATCGGTTAGTGCTA	2.04 z-score
TCACCCCTCTAGGTTCTCACTGTGCTA	0.328 z-score
GCGGGAGAAAGCAAGCCCAGGTGCTAG	-0.74 z-score
GGACACGGATGCGGTCTGCCGTGCTAG	-0.384 z-score
CACTCTTGCTTTTTAGATCGGTGCTAG	1.03 z-score
GACGAGATCAGTCTCGAGACGTGCTAG	1.53 z-score
CATCCGTTTCTTCTAGACTTGTGCTAG	1.31 z-score
ACGTAGAAGGAAGAAGCACGGTGCTAG	-0.541 z-score

A few entries again (series 3):
Change	binding fitness [natural log]
R30C	0.01
L52Y	-0.837
R53D	-1.08
E32Q	-0.0894
